Measurements from different studies.
Each numbered part is a random draw from the data of one study; scales do not carry over between parts. Several values in a cell are separate wells, animals, samples, runs or records.
Sequence of UniProt P07947 (whole entry, looked up): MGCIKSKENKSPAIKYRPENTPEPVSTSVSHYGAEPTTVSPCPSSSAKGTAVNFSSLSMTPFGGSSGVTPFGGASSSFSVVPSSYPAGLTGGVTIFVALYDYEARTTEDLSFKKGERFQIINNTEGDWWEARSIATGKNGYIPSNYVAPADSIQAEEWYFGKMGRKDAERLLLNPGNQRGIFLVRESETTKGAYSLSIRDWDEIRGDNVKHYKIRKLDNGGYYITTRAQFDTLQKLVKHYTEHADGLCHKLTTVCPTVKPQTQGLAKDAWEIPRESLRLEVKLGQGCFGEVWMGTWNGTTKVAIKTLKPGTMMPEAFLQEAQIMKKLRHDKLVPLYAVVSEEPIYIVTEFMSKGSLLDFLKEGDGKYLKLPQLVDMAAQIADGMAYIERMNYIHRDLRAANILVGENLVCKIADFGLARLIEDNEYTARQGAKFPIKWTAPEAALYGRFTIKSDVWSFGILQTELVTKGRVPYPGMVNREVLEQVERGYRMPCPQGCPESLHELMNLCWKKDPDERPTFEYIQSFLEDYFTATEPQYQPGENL
Sequence of UniProt Q9P286 (whole entry, looked up): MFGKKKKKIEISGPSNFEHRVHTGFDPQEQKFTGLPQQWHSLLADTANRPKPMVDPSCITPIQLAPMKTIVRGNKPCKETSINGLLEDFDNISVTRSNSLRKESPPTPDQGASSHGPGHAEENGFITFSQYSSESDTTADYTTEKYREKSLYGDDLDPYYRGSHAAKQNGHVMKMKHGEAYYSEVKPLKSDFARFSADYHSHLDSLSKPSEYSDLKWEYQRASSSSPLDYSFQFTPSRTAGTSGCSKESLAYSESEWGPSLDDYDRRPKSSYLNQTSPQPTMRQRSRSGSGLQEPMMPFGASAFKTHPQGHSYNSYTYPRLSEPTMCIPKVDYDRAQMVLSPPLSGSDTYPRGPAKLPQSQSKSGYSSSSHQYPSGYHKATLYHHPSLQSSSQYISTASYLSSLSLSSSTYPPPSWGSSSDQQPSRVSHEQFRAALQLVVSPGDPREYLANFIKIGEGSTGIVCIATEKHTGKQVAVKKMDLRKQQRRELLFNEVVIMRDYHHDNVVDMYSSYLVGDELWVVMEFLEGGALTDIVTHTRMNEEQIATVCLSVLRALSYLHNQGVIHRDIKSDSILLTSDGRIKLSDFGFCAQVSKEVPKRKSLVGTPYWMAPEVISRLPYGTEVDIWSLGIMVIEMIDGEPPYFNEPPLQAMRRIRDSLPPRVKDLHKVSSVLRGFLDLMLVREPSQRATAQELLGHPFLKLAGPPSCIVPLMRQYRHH
Sequence of UniProt P49759 (whole entry, looked up): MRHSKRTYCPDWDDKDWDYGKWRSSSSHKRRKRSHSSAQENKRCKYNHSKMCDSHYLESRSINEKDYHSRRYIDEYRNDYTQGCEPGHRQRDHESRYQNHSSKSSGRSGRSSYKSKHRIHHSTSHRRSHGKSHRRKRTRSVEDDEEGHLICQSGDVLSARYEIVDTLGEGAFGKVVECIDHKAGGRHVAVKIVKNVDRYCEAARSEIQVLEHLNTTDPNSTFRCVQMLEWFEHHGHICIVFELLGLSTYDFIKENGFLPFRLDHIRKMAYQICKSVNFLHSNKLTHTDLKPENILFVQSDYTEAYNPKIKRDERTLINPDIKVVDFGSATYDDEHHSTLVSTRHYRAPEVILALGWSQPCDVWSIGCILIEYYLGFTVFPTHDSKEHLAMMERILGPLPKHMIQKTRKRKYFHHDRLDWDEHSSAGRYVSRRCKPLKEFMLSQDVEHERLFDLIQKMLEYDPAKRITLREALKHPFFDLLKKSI
Sequence of UniProt Q8TDR2 (whole entry, looked up): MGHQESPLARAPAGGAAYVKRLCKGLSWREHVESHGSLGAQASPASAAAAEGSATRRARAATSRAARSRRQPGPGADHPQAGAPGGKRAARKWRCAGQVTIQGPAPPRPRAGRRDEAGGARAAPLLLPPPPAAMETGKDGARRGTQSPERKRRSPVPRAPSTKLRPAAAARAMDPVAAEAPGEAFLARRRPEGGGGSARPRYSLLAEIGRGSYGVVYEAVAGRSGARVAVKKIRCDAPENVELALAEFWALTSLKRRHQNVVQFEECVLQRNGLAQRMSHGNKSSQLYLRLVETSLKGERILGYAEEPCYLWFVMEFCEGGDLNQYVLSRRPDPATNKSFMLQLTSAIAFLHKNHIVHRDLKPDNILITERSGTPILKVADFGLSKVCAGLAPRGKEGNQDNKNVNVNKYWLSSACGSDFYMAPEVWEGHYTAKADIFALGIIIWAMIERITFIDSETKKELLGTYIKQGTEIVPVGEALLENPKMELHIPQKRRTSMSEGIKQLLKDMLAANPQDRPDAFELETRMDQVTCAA
Sequence of UniProt Q8IWQ3 (whole entry, looked up): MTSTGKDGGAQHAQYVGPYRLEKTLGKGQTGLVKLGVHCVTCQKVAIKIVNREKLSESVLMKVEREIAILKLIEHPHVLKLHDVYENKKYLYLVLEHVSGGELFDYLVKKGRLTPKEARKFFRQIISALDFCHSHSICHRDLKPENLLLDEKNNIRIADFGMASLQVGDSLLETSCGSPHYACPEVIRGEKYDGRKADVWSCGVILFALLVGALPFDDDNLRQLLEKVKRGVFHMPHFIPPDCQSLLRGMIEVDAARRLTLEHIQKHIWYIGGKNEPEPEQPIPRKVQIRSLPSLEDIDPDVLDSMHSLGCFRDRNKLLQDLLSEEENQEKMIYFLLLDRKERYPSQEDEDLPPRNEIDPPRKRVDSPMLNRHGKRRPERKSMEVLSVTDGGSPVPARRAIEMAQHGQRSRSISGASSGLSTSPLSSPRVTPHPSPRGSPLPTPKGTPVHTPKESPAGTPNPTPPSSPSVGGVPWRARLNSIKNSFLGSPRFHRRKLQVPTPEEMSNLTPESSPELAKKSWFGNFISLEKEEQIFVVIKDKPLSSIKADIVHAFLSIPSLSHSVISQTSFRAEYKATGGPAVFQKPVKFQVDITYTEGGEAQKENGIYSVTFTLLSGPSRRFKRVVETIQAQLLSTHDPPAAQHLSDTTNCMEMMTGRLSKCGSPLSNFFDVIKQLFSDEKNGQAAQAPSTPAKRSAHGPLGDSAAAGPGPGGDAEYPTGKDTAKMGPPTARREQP
Sequence of UniProt O00506 (whole entry, looked up): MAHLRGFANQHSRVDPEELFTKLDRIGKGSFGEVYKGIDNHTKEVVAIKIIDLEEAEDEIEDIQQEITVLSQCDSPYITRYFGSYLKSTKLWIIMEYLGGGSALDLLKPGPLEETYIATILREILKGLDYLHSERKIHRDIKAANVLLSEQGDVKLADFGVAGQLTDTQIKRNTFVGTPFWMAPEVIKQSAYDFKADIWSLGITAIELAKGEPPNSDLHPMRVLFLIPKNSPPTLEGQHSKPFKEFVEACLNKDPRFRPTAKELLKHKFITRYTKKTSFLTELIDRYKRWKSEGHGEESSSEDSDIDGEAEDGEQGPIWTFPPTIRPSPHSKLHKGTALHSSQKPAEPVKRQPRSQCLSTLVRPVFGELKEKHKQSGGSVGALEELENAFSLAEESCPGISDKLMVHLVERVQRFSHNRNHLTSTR
Sequence of UniProt Q7KZI7 (whole entry, looked up): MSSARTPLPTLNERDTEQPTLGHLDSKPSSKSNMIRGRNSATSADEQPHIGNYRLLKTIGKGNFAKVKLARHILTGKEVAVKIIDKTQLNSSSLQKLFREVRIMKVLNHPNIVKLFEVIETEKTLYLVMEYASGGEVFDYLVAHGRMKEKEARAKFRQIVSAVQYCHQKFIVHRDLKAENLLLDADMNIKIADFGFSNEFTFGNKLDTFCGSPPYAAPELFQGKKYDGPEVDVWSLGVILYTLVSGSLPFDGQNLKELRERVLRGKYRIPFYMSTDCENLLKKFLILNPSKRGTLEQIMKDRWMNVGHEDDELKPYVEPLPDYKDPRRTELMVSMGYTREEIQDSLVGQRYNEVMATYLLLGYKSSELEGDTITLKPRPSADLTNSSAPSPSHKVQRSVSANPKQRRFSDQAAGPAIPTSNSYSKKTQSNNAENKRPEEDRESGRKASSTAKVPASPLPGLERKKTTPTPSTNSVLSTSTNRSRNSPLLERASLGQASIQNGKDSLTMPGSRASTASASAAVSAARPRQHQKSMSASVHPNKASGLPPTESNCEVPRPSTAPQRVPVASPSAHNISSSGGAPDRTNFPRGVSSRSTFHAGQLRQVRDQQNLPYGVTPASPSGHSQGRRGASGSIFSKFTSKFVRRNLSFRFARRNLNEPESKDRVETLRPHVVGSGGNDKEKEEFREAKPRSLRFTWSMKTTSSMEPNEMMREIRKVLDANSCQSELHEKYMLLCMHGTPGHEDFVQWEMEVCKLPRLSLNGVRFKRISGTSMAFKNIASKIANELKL
Sequence of UniProt Q9P0L2 (whole entry, looked up): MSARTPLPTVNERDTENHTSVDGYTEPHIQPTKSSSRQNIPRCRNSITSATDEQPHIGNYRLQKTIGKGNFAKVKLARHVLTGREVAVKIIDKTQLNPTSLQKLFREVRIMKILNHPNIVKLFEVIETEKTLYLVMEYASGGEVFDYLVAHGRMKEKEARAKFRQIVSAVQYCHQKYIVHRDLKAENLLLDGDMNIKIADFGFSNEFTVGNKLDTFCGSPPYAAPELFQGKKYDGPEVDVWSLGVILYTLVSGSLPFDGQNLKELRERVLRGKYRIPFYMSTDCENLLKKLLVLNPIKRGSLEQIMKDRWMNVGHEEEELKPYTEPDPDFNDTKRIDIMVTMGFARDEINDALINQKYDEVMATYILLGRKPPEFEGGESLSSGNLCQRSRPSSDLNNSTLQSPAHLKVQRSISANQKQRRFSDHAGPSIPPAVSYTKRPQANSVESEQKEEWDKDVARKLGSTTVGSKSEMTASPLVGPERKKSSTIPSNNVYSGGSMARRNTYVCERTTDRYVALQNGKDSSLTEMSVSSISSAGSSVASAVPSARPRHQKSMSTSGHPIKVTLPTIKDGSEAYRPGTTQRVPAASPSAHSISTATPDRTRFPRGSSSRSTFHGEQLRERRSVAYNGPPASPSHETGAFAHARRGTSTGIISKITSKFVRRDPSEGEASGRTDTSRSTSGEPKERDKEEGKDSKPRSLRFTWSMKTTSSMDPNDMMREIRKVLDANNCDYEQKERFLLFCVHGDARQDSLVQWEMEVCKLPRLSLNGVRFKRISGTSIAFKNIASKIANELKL

Sample 1 — cell line: HaCaT; concentration: 100 µM; time: 18 h; quantity: viability
SMILES = NC1C(O)O[C@H](CO)C(O[C@@H]2O[C@H](CO)C(O[C@@H]3O[C@H](CO)[C@@H](O)[C@H](O)[C@H]3N)[C@H](O)C2N)C1O (some centres unmarked); value = 116%
SMILES = Cc1onc(-c2ccccc2Cl)c1C(=O)N[C@@H]1C(=O)N2[C@@H]1SC(C)(C)[C@@H]2C(=O)O; value = 108%
SMILES = CCCCC(O)c1ccccc1 (centres unmarked); value = 88.4%
SMILES = O=C(Nc1ccc(O)cc1)c1ccccc1O; value = 63.1%
SMILES = C#C[C@]1(O)CC[C@H]2[C@@H]3CCC4=Cc5oncc5C[C@]4(C)[C@H]3CC[C@@]21C; value = 16.3%
SMILES = CCOc1nc2cccc(C(=O)O)c2n1Cc1ccc(-c2ccccc2-c2noc(=O)[nH]2)cc1; value = 110%
SMILES = Cc1cccc(C)c1OCC(=O)N[C@@H](Cc1ccccc1)[C@@H](O)C[C@H](Cc1ccccc1)NC(=O)[C@H](C(C)C)N1CCCNC1=O; value = 25.9%

Sample 2 — Structure (SMILES): CCN1/C(=C/C(C)=O)Sc2ccc(OC)cc21; observed: enzyme activity; mode: inhibitor; concentration: 0.5 µM; baseline: control; quantity: remaining activity
target = CAMKK1 (Homo sapiens, UniProt Q8N5S9); value = 105%
target = PAK5 (Homo sapiens, UniProt Q9P286); value = 84.7%
target = MELK (Homo sapiens, UniProt Q14680); value = 94.6%
target = FES (Homo sapiens, UniProt P07332); value = 101%
target = ACVRL1 (Homo sapiens, UniProt P37023); value = 102%
target = BRSK2 (Homo sapiens, UniProt Q8IWQ3); value = 89.5%
target = SGK2 (Homo sapiens, UniProt Q9HBY8); value = 93.7%
target = MARK1 (Homo sapiens, UniProt Q9P0L2); value = 91%
target = CLK1 (Homo sapiens, UniProt P49759); value = 41.8%
target = PAK4 (Homo sapiens, UniProt O96013); value = 108%
target = TEC (Homo sapiens, UniProt P42680); value = 116%
target = CAMK1 (Homo sapiens, UniProt Q14012); value = 88.5%
target = RPS6KA3 (Homo sapiens, UniProt P51812); value = 102%
target = PAK1 (Homo sapiens, UniProt Q13153); value = 92.9%
target = ERBB2 (Homo sapiens, UniProt P04626); value = 99.9%
target = SRPK1 (Homo sapiens, UniProt Q96SB4); value = 106%
target = YES1 (Homo sapiens, UniProt P07947); value = 91.8%

Sample 3 — technique: immunohistochemistry; species: human; matrix: tumour biopsy; route: oral; time: cycle 1 day 28; direction: direction not given; quantity: SDMA H-score
SMILES: COc1ccc(-c2c(Nc3ccccn3)[nH]c3c(C4=CCCCC4)c(-c4ccccc4)nn3c2=O)cc1
dose = 200 mg once daily; value = 1
dose = 100 mg once daily; value = 40
dose = 400 mg once daily; value = 270 and 170 and 100

Sample 4 — observed: cell-free assay; technique: competition with immobilised ligand; concentration: 0.1 µM; quantity: remaining binding
SMILES: CC(C)CC(=O)N1CCc2nc(-c3ccc(Br)cc3)nc(N(C)Cc3ccccc3)c2C1
target = IRAK4 (Homo sapiens, UniProt Q9NWZ3); value = 100%
target = MARK3 (Homo sapiens, UniProt P27448); value = 100%
target = CSNK1G1 (Homo sapiens, UniProt Q9HCP0); value = 100%
target = FRK (Homo sapiens, UniProt P42685); value = 100%
target = MAP3K9 (Homo sapiens, UniProt P80192); value = 91%
target = DSTYK (Homo sapiens, UniProt Q6XUX3); value = 100%

Sample 5 — observed: binding; concentration: 1 µM; quantity: remaining binding
Structure (SMILES): CN1CCN(C(=O)c2ccc(NC(=O)Nc3ccc(N(C)c4ccnc(Nc5ccc(CS(C)(=O)=O)cc5)n4)cc3)cc2)CC1
target = MARK2 (Homo sapiens, UniProt Q7KZI7); value = 84%
target = STK25 (Homo sapiens, UniProt O00506); technique = competition with immobilised ligand; value = 83%
target = STK35 (Homo sapiens, UniProt Q8TDR2); technique = competition with immobilised ligand; value = 71%
target = TSSK3 (Homo sapiens, UniProt Q96PN8); value = 75%

Single results of other studies
SMILES = CCOC(=O)[C@@H]1CSCC(=O)N[C@@H](CC)C(=O)N(C)[C@@H](C)C(=O)N[C@@H](CC(C)C)C(=O)N2CCC[C@@H]2C(=O)N(CC(C)C)CC(=O)N[C@@H](CC(C)C)C(=O)N(C)[C@@H](C)C(=O)N[C@@H](CC(C)C)C(=O)N1C; matrix = hydrocarbon/water; quantity = logD; value = 2.38

Repeated from above (sample 2):
target = TEC (Homo sapiens, UniProt P42680); value = 116%
target = MELK (Homo sapiens, UniProt Q14680); value = 94.6%
target = SGK2 (Homo sapiens, UniProt Q9HBY8); value = 93.7%
target = MARK1 (Homo sapiens, UniProt Q9P0L2); value = 91%
target = RPS6KA3 (Homo sapiens, UniProt P51812); value = 102%
